Measured values collected from several papers.
Lines come from different studies, so protocols differ. Several values in a cell are separate wells, animals, samples, runs or records. Numbers after ± are the reported error. In brackets after ≈: the same amount, converted by molar mass.

CCCCCCCCCCCCCNCC(=O)N(CC(=O)N(CCCCN)CC(=O)N(CCN)CC(=O)N(CC(N)=O)Cc1ccc(F)cc1)Cc1ccc(F)cc1
acetonitrile at elution (preparative RP-HPLC C18; water to acetonitrile gradient; 0.05% TFA in eluent; higher = more hydrophobic): 69.3%

O=C(/C=C/c1ccc(O)c(O)c1)O[C@H](Cc1ccc(O)c(O)c1)C(=O)O
MRT(0-t) (UPLC-MS/MS; Wistar rat, microcirculation dysfunction model, plasma; oral, 100 mg/kg Salvia miltiorrhiza stem-leaf extract FT): 7.75 ± 2.04 h

Cc1cc2nc3c(=O)[nH]c(=O)nc-3n(C[C@H](O)[C@H](O)[C@H](O)COP(=O)(O)O)c2cc1C
aqueous solubility (1 M KOH aqueous; pH 14, no hydrotrope): 1300 mM (≈ 593 mg/mL)

COC(=O)N[C@H](C(=O)N[C@@H](Cc1ccccc1)[C@@H](O)CN(Cc1ccc(-c2ccccn2)cc1)NC(=O)[C@@H](NC(=O)OC)C(C)(C)C)C(C)(C)C
AUC(0-24) (HIV-infected patients, plasma; oral, 300 mg once daily, day 1, steady state, together with: ritonavir 100 mg once daily): 40200 ng·h/mL

CCCC[C@H](NC(C)=O)C(=O)N[C@H]1CCC(=O)NC[C@@H](C(=O)N[C@@H](Cc2c[nH]c3ccccc23)C(N)=O)NC(=O)[C@H](CCCNC(=N)N)NC(=O)[C@@H](Cc2ccccc2)NC(=O)[C@H](Cc2c[nH]cn2)NC1=O
Vss/F (healthy human, both sexes, plasma; subcutaneous, 1.0 mg once daily, day 7, arithmetic mean): 200 L

Cc1ccc(NC(=O)c2ccc(CN3CCN(C)CC3)cc2)cc1Nc1nccc(-c2cncc(-c3oncc3C)c2)n1
AUC(0-t) (older healthy human adults, plasma; oral, 12.5 mg single dose, fed, mean): 9160 ng·h/mL

[2H]C([2H])([2H])Oc1cc2c(cc1OC([2H])([2H])[2H])C1CC(=O)C(CC(C)C)CN1CC2 (centres unmarked)
dose-normalized Cmax (refers to: deuterated α-HTBZ; healthy human volunteers, plasma; oral, 24 mg single dose, standard meal): 1.5 ng/mL

CCOC(=O)C1=C[C@@H](OC(CC)CC)[C@H](NC(C)=O)[C@@H](N)C1
elimination rate constant (healthy Indian human, plasma; oral, 75 mg single, test capsule fed): 4.89e-05 ± 2.17e-05 s⁻¹

C[C@](N)(Cc1ccc(O)c(O)c1)C(=O)O
solubility (static gravimetric method; supercritical CO2, 797.4 kg/m3; 5 h, 323 K, pressure 21 MPa): 226 µg/mL (≈ 1070 µM)

Cc1cc(C)c2c(c1)[C@@H](N(Cc1cc(C(F)(F)F)cc(C(F)(F)F)c1)c1nnn(C)n1)CCCN2C[C@H]1CC[C@H](C(=O)O)CC1
Vss/F (human, plasma; oral, 10 mg once daily, steady state, geometric mean): 543 L

Cc1cccc(C)c1OCC(=O)N[C@@H](Cc1ccccc1)[C@@H](O)C[C@H](Cc1ccccc1)NC(=O)[C@H](C(C)C)N1CCCNC1=O
amorphous solubility (pyrene fluorescence; phosphate buffer with HPMCAS; pH 6.5, 37 °C): 17 µg/mL

CCn1c(=O)c2c(nc(/C=C/c3ccc(O)c(OC)c3)n2C)n(CC)c1=O
metabolite to parent Cmax ratio (healthy humans, plasma; oral, 40 mg, together with: rifampin 600 mg/day): 0.0778

CNC(=O)c1cccc2cc(Oc3ccnc4cc(OCC5(N)CC5)c(OC)cc34)ccc12
Vss/F (human; oral, 10 mg, cycle 1 day 15, multiple dose, continuous arm): 163 ± 140 L

CCOc1ccc(Cc2cc([C@]34OC[C@](CO)(O3)[C@@H](O)[C@H](O)[C@H]4O)ccc2Cl)cc1
dose excreted unchanged (human, type 2 diabetes, severe renal impairment, urine; oral, 15 mg, 0 to 96 h): 0.389%

CN(C)C(=O)c1cc2cnc(Nc3ccc(N4CCNCC4)cn3)nc2n1C1CCCC1
unbound concentration (LC-MS/MS; human, enhancing tumour tissue; oral, 600 mg once daily for 14 days): 1.61 nmol/g and 1.19 nmol/g and 1.02 nmol/g and 1.36 nmol/g

C=CC(=O)Nc1cc(Nc2ncc(C(=O)OC(C)C)c(-c3cn(C)c4ccccc34)n2)c(OC)cc1N(C)CCN(C)C
AUC(0-t) (human, fasted; oral, 120 mg single dose, geometric mean): 448 ng·h/mL

COc1ccc2nc([S@@+]([O-])Cc3ncc(C)c(OC)c3C)[nH]c2c1
adverse events (human healthy; 40 mg, vessel puncture site reaction): 0%

C=CC(=C)CCC1(C)C(C)CC(O)C23C(=CC(OC(=O)C(C)CC)CC12)C(OC(C)=O)OC3OC(C)=O (centres unmarked)
haemolysis (haemolysis; 20 µM): 2.2%

N[C@H]1CCN(c2nccc(-c3cnn4ncccc34)n2)C1
CLint (human liver microsomes): 199 µL/min/mg

CC(C)(Sc1ccncc1-c1ccc(C#N)c2ccccc12)C(=O)O
AUC(0-24) (non-Asian male subjects, plasma; oral, 10 mg, single dose, fed, geometric least squares mean): 111 ng·h/mL

C=CC(N)CCC(=O)O (centres unmarked)
Cmax (male Sprague-Dawley rat, plasma; oral, 10 mg/kg, formulation 8, together with: infant formula 1500 mg/kg): 9240 ± 731 ng/mL

C[C@@H](Oc1ccc(S(C)(=O)=O)cc1C(=O)N1C[C@@H]2C[C@]2(c2cc(C(F)(F)F)on2)C1)C(F)(F)F
trough concentration (human male, plasma; oral, 10 mg once daily, 312 h): 107 nM

N[C@]1(C(=O)O)[C@H]2[C@@H](C[C@@H]1F)[C@@H]2C(=O)O
AUC(0-24 h) (healthy subjects, both sexes, plasma; oral, 10 mg TS-134 single dose, fed, mean): 382 ng·h/mL

CCCC[C@@H]1NC(=O)[C@@H](NC(=O)[C@H](CCC(=O)O)NC(=O)CNC(=O)CN2CCN(CC(=O)O)CCN(CC(=O)O)CCN(CC(=O)O)CC2)CCCCNC(=O)C[C@@H](C(N)=O)NC(=O)[C@H](C(C)C)NC(=O)[C@@H]2CCCN2C(=O)[C@H](CCCNC(=N)N)NC(=O)CNC(=O)[C@H](Cc2c[nH]c3ccccc23)NC(=O)[C@H](CCCNC(=N)N)NC(=O)[C@@H](Cc2ccccc2)NC(=O)[C@H](Cc2c[nH]cn2)NC(=O)[C@H](CCC(=O)O)NC1=O [indium-111 labelled]
tissue uptake (normal C57 mice, spleen; intravenous, 0.037 MBq, 4 h): 0.06 ± 0.04 %ID/g

CN[C@@H]1[C@H](O)[C@H](NC)[C@H]2O[C@]3(O)[C@H](O[C@@H]2[C@H]1O)O[C@H](C)C[C@H]3NC(=O)Cc1cc(Cl)ccn1
parent remaining (glutathione conjugation; rat liver S9; 100 µM, 2 h, pH 7.4, together with: glutathione 0.2 mM): 71.9%

Cc1nc2cccc(OCC(C)(C)C(=O)NC(C)C)c2c(N)c1C(=O)O
excreted dose (Sprague-Dawley rat, female, urine and feces; oral, 10 mg/kg, 72 h): 91.4%

C#C[C@]1(CO)O[C@@H](n2cnc3c(N)nc(F)nc32)C[C@@H]1O
AUC(0-inf) (human, plasma; oral, 100 mg, single dose, fasted): 11.7 µM·h

NC(=O)N1c2ccccc2C=Cc2ccccc21
AUC(0-24 h) (rat, Sprague Dawley, both sexes, plasma; oral, 10 mg/kg, alone): 49200 ng·h/mL

C=C(C)[C@@H]1CC[C@]2(NCCN3CCS(=O)(=O)CC3)CC[C@]3(C)[C@H](CC[C@@H]4[C@@]5(C)CC=C(C6=CC[C@@](CF)(C(=O)O)CC6)C(C)(C)[C@@H]5CC[C@]43C)[C@@H]12
tmax (HIV-1-positive treatment-naive adults, plasma; oral, 10 mg single dose, day 1, with food): 2.93 h

CN[C@H](CC(C)C)C(=O)N[C@H]1C(=O)N[C@@H](CC(N)=O)C(=O)N[C@H]2C(=O)N[C@H]3C(=O)N[C@H](C(=O)N[C@H](C(=O)O)c4cc(O)cc(O)c4-c4cc3ccc4O)[C@H](O)c3ccc(c(Cl)c3)Oc3cc2cc(c3O[C@@H]2O[C@H](CO)[C@@H](O)[C@H](O)[C@H]2O[C@H]2C[C@](C)(N)[C@H](O)[C@H](C)O2)Oc2ccc(cc2Cl)[C@H]1O
time above MIC (microdialysis; pig (Danish Landrace), subcutaneous adipose tissue; iv infusion, 1000 mg over 100 min, MIC 2.0 µg/mL, together with: meropenem co-administered): 433 min

CCCOc1ccc([C@H]2CNC(=O)N2c2ccc3[nH]cnc3c2)cc1
AUC(0-12h) (non-elderly adults, fasted, plasma; oral, 50 mg twice daily, day 11, oral solution, geometric mean): 413 ng·h/mL

C[C@]12CC[C@@H]3c4ccc(OS(=O)(=O)O)cc4CC[C@H]3[C@@H]1CCC2=O
permeation rate constant ratio (BME-UV cell monolayer on Transwell; 100 µM, 4 h, apical to basolateral; baseline: support alone over monolayer): ≥ 80

CS(=O)(=O)n1cc2c(n1)CN([C@H]1CO[C@H](c3cc(F)ccc3F)[C@@H](N)C1)C2
concentration at 168 h (healthy male human, plasma; oral, 100 mg once weekly, day 1, fasted, geometric mean): 51.5 nM

CC(C)C[C@H](NC(=O)[C@H](CCc1ccccc1)NC(=O)CN1CCOCC1)C(=O)N[C@@H](Cc1ccccc1)C(=O)N[C@@H](CC(C)C)C(=O)[C@@]1(C)CO1
Vz (LC-MS; human, plasma; intravenous push, 11 mg/m^2): 234 L

CC#CC(=O)N1CCC[C@H]1c1nc(-c2ccc(C(=O)Nc3ccccn3)cc2)c2c(N)nccn12
AUC(0-12h) (Japanese patients, plasma; oral, 100 mg twice daily, day 8, fasting, multiple dose, geometric mean): 1210 ng·h/mL

COc1ccc2c(c1)C(=O)CCc1ccccc1C(=O)N2
kinetic solubility (nephelometry; aqueous buffer; 30 min, pH 6.5): 50 to 100 µg/mL (≈ 178 to 355 µM)

C[C@@H]1[C@H](c2c(F)ccc(F)c2F)C[C@H](NC(=O)c2cnc3c(c2)C[C@@]2(C3)C(=O)Nc3ncccc32)C(=O)N1CC(F)(F)F
dose excreted (healthy male human, urine and feces; oral, 50 mg, 14 days, total radioactivity): ~89%

CCC[C@@]1(CCc2ccccc2)CC(O)=C([C@H](CC)c2cccc(NS(=O)(=O)c3ccc(C(F)(F)F)cn3)c2)C(=O)O1
oral bioavailability (Sprague Dawley rat, male, plasma; oral, 5 mg/kg, long-chain triglyceride formulation): 44 ± 4%

CS/C(S)=N/CCCC[S+](C)[O-] (racemic)
mRNA level (RT-PCR; Sprague-Dawley rat female, mammary gland; oral gavage, 200 mg/kg, 4 days; baseline: vehicle): 0.12 fold change

CNC[C@H](O)[C@@H](O)[C@H](O)[C@H](O)CO.CNC[C@H](O)[C@@H](O)[C@H](O)[C@H](O)CO.O=C([O-])CN(CCN(CC(=O)[O-])CC(=O)O)CCN(CC(=O)[O-])CC(=O)O.[Gd+3]
T1 relaxivity r1 (MRI at 9.4 T; saline; 37 °C, per Gd): 4 ± 0.1 mM⁻¹ s⁻¹

c1ccc(-c2ccc(-c3nc4ccccc4[nH]3)cc2)cc1
maximum solubility (0.1 M sodium acetate with 0.01% Triton X-100; pH 5.5): 0.01 mM

CCCS(=O)(=O)Nc1ccc(F)c(C(=O)c2c[nH]c3ncc(-c4ccc(Cl)cc4)cc23)c1F
unbound fraction (equilibrium dialysis; 100% human plasma; 5 to 500 µM, before adding to plate): 9.3e-06 ± 1.2e-06

COc1cc(/C=C/C(=O)CC(=O)/C=C/c2ccc(O)c(OC)c2)ccc1O
brain uptake ratio (I-125 label, gamma counting; C57BL/6J mouse, hippocampus; IN 10 µg/mouse vs IP 100 µg/mouse, 30 min; baseline: intranasal over intraperitoneal): 5.21

Clc1ccccc1C(c1ccccc1)(c1ccccc1)n1ccnc1
unbound fraction (equilibrium dialysis; CYP2C8 preparation, phosphate buffer; 1 µM, 12 h, pH 7.4): 0.048 ± 0.002

teicoplanin
trough concentration (human, CrCl 40 to 60 mL/min, serum; intravenous, 400 mg q12h loading, 400 mg/day, day 4): 15.9 ± 4.94 mg/L

Cc1c2c(n(-c3ccc(Cl)cc3Cl)c1-c1ccc(OS(=O)(=O)CCC(F)(F)F)cc1)CCN(N1CCCCC1)C2=O
plasma concentration (LC-MS/MS; cynomolgus monkey 1, plasma; intravenous infusion, 2.0 mg/kg, 90 min, total concentration mid-point of PET): 560 nM

Cc1ccc(-c2cc(C(F)(F)F)nn2-c2ccc(S(N)(=O)=O)cc2)cc1
AUC (male ICR mouse, liver; oral, 3 mg/kg, 24 h): 42600 ng·h/mL

CCCCC[N+]1(CC(=O)OC2CCCCCCCCCCC2)CCCCC1.[I-]
aqueous solubility (phosphate buffer with 2% DMSO; 90 min, pH 7.4, theoretical maximum 200 µM): 0.196 mM

C[C@H](Oc1ccc(-c2nc(-c3ccc4[nH]cnc4c3)no2)cc1C(F)(F)F)C(F)(F)F
plasma concentration (cynomolgus monkey, aneurysm model, plasma; 0.1 mg/kg once daily, 2 h post-dose, 12 months dosing): 13 ± 2.1 nM

O=C(NCCCCNCCCNC(=O)c1cc(Br)c(Br)o1)c1cc(Br)c(Br)o1
CC50 (cell viability, MTT; bone marrow-derived macrophages, BALB/c mouse, female; 24 h): 83 ± 4 µM
